Published values collected from several papers.
Protocols differ between the studies behind these lines. Values joined by “and” are separate records of one study, mostly repeats; a detail may differ. ± marks the error that the study gave.
Palmitoyl-protein thioesterase 1: Palmitoyl-protein thioesterase 1 (Homo sapiens, UniProt P50897)
Sequence of UniProt P50897 (whole entry, looked up): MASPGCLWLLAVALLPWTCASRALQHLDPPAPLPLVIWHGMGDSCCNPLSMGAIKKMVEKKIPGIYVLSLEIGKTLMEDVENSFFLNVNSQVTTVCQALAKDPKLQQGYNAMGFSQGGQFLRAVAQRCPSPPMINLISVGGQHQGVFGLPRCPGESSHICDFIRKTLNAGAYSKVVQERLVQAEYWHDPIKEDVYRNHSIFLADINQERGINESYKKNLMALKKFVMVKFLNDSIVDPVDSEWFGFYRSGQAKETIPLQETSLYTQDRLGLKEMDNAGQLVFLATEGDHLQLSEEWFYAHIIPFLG
Luciferin 4-monooxygenase: Luciferin 4-monooxygenase (Photinus pyralis, UniProt P08659)
Sequence of UniProt P08659 (whole entry, looked up): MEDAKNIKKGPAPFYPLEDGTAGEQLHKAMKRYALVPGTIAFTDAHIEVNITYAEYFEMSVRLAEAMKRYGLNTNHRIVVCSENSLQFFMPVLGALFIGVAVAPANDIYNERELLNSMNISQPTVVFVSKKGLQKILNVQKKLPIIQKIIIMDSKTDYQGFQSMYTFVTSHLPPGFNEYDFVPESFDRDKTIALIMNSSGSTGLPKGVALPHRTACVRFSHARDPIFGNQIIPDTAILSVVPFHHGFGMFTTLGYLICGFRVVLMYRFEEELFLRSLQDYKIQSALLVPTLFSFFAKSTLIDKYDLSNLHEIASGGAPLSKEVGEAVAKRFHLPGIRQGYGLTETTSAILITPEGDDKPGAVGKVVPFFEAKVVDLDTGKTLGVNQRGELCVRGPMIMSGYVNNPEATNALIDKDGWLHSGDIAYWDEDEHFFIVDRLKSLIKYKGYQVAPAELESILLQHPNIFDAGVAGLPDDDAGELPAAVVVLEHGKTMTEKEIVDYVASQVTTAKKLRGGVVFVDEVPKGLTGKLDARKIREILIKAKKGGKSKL
DRD1: D(1A) dopamine receptor (DRD1, Homo sapiens, UniProt P21728)
Sequence of UniProt P21728 (whole entry, looked up): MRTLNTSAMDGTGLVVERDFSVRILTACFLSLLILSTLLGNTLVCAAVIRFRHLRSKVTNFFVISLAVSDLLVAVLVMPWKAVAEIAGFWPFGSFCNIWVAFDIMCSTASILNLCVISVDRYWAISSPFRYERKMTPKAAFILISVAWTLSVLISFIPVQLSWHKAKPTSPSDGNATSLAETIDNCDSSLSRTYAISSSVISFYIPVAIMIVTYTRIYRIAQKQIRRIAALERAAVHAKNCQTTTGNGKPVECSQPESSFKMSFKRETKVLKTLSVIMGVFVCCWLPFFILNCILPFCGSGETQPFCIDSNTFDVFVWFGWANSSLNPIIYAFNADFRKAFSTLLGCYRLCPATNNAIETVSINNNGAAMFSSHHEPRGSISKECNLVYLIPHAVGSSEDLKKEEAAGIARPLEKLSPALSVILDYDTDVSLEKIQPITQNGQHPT
Sequence of UniProt P55201 (whole entry, looked up): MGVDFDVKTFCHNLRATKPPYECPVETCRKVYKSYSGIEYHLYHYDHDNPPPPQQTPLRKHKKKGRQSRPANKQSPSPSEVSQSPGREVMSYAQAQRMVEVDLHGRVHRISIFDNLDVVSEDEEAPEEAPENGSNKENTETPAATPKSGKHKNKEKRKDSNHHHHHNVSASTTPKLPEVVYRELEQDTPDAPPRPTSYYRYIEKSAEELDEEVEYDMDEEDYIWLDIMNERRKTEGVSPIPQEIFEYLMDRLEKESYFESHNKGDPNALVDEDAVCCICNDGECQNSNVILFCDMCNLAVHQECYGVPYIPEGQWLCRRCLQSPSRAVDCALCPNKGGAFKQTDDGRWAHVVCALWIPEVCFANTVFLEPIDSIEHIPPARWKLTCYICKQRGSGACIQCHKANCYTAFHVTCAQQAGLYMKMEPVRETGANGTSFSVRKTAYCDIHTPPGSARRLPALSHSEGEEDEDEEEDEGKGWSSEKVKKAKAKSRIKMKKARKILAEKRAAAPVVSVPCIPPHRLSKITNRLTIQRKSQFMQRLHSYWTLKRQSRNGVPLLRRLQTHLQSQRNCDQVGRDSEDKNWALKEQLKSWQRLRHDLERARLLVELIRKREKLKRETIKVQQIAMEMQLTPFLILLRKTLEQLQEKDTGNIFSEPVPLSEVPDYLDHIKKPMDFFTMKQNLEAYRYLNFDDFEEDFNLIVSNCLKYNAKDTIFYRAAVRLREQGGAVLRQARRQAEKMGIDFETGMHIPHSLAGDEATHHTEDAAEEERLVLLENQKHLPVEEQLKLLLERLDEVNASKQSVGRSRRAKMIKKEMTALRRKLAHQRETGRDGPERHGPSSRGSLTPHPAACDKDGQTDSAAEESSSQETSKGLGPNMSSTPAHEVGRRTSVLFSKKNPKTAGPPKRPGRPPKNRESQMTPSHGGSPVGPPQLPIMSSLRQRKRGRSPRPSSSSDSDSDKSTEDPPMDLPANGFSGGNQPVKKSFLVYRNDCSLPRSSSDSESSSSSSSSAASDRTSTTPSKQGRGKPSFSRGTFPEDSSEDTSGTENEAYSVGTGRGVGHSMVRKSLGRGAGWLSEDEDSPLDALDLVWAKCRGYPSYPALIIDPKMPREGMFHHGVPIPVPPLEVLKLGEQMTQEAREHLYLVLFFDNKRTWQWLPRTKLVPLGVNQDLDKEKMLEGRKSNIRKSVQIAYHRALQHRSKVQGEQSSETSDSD
Sequence of UniProt P07237 (whole entry, looked up): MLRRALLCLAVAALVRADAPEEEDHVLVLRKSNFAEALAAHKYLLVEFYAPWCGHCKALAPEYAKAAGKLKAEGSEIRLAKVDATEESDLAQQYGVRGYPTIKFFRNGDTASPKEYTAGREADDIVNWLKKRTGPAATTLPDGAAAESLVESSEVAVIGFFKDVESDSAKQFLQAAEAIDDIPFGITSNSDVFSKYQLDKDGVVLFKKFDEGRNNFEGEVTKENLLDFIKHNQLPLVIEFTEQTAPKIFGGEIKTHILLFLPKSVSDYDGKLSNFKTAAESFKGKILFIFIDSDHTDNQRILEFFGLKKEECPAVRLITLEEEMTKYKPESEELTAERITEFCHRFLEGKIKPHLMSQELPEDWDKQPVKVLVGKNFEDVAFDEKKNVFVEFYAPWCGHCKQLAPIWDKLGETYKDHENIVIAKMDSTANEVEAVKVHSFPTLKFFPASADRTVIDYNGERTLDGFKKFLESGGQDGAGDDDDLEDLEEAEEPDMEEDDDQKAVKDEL
Sequence of UniProt P28566 (whole entry, looked up): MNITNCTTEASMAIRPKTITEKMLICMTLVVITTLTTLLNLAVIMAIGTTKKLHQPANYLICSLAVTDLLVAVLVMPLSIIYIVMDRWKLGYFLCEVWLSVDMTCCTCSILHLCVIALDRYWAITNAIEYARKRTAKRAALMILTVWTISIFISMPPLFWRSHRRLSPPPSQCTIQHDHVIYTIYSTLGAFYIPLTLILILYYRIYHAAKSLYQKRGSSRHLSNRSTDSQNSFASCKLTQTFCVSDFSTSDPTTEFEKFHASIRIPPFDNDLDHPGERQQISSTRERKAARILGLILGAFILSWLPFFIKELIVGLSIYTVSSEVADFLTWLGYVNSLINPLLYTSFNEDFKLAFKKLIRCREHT
Sequence of UniProt O95747 (whole entry, looked up): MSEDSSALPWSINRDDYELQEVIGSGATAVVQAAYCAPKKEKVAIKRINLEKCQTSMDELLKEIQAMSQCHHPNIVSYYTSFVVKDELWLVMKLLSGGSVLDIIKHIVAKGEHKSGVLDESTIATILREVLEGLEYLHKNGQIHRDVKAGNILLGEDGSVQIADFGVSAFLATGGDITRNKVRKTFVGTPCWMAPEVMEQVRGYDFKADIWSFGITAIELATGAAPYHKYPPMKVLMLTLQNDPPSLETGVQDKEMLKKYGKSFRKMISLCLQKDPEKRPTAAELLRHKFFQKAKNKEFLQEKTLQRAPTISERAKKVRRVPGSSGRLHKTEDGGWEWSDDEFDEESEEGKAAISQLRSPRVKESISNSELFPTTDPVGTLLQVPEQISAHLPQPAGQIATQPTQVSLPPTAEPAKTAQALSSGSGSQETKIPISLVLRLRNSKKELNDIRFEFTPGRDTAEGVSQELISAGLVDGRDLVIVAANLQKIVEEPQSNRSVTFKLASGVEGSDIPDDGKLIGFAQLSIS
Sequence of UniProt Q16769 (whole entry, looked up): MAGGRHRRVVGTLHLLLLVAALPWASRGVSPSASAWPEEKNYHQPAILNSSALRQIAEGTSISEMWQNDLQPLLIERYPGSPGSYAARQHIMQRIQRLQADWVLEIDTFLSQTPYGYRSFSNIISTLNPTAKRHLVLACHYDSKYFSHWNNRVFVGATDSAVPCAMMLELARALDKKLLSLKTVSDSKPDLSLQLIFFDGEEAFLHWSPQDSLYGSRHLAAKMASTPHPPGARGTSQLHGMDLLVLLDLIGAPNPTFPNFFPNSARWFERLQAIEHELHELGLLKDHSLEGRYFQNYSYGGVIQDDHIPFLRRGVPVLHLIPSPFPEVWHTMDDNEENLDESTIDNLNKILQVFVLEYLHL
Sequence of UniProt Q8N884 (whole entry, looked up): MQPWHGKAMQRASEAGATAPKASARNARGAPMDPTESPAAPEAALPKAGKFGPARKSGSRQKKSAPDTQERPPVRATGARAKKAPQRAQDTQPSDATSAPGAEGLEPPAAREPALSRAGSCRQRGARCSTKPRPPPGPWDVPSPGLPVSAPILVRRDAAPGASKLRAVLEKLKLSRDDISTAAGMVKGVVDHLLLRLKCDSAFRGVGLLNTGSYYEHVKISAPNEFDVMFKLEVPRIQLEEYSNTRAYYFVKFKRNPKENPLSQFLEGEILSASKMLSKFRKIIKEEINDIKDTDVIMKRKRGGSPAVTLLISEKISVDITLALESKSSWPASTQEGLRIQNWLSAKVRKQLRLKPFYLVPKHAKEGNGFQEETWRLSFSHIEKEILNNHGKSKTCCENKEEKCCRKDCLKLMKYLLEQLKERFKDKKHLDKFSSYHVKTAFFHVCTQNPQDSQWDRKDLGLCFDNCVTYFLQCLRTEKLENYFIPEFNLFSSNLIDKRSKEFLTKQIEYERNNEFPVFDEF

| SMILES | target or system | assay | test system | setting | inhibition |
| --- | --- | --- | --- | --- | --- |
| NC/C(=C\F)COc1cccc(Cn2c(=S)[nH]c(=O)c3[nH]cnc32)c1 | rat NMDA receptor | radioligand binding |  | 10 µM, agonist site | < 50% |
| Cc1cccc(N(O)N=Nc2ccc(S(=O)(=O)Nc3cc(C)on3)cc2)c1 | α-glucosidase, rat intestine | enzyme activity |  | 300 µg/mL, together with: 4-nitrophenyl α-D-glucopyranoside | 47.5 ± 1.3% |
| CO[C@H]1/C=C/O[C@@]2(C)Oc3c(C)c(O)c4c(O)c(c(/C=N/N5CCN(C6CCCC6)CC5)c(O)c4c3C2=O)NC(=O)/C(C)=C\C=C\[C@H](C)[C@H](O)[C@@H](C)[C@@H](O)[C@@H](C)[C@H](OC(C)=O)[C@@H]1C | Palmitoyl-protein thioesterase 1 | Spectrum Collection screen |  | concentration not given, together with: substrate 20 µM | 76.2% |
| O=C(Nc1cccc2c(=O)cc(-c3nnn[nH]3)oc12)c1ccc(OCCCCc2ccccc2)cc1 | Volume-regulated anion channel subunit LRRC8C, part LRRC8A IL1 chimera (LRRC8C, Homo sapiens, UniProt Q8TDW0, E6A) | ion current, inhibitor, whole-cell patch clamp | HCT LRRC8-/- cells | 10 µM, -100 mV | 93.9% and 92% and 87.5% and 94.5% |
| CC(C)c1noc2ncc(C(=O)c3ccccc3O)cc12 | Sodium channel protein type 2 subunit alpha (Scn2a, Rattus norvegicus, UniProt P04775) | ion current, whole-cell patch-clamp |  | 10 µM, rNav1.2 | 6.3% |
| Cc1cc(C)nc(Cn2ncc(N(C)Cc3ccccc3)cc2=O)n1 | Luciferin 4-monooxygenase | luciferase luminescence, inhibitor | cell-free | 50 µM, counter-screen | 12% |
| COc1ccc2c(c1)C(=O)N(CCN1CCN(c3ccccc3OC)CC1)C2 | DRD1 | radioligand binding |  | concentration not given, together with: [3H]SCH23390 | 29.3% |
| COc1ccc(NC(=O)N2CCc3c(C(=O)NC4CCN(C)CC4)cccc32)cc1 | Luciferin 4-monooxygenase | luciferase luminescence, inhibitor | cell-free | 50 µM, counter-screen | 45.3% |
| Cc1cccc(N(O)N=Nc2ccc(S(=O)(=O)Nc3nccs3)cc2)c1 | α-glucosidase, rat intestine | enzyme activity |  | 180 µg/mL, together with: 4-nitrophenyl α-D-glucopyranoside | 27.5 ± 0.097% |
| CCOC(=O)n1ccn(C)c1=S | THP-1 | pyroptotic LDH release |  | 2 µM, 40 min, together with: LPS then nigericin | -5.6% |
| CCCCCCCC/C=C1\C=C(C(F)(F)F)c2cc(O)c(O)cc21 | Protein disulfide-isomerase (P4HB, Homo sapiens, UniProt P07237) | insulin reduction, inhibitor |  | concentration not given, 37 °C, low micromolar preincubation | inhibited |
| CCNNC(=O)c1ccc(CN(CC(=O)NCc2ccccc2)C(=O)c2ccc(N(C)C)cc2)cc1 | Glutaminyl-peptide cyclotransferase (QPCT, Homo sapiens, UniProt Q16769) | inhibitor |  | 10 µM | no inhibition |
| CCCN(O)N=Nc1ccc(S(=O)(=O)Nc2onc(C)c2C)cc1 | α-glucosidase, rat intestine | enzyme activity |  | 20 µg/mL, together with: 4-nitrophenyl α-D-glucopyranoside | 7.5 ± 0.04% |
| CC[C@@H]1[C@H](F)C(=O)N[C@@H]1COc1nccc2cc(C(N)=O)c(OC)cc12 | Serine/threonine-protein kinase OSR1 (OXSR1, Homo sapiens, UniProt O95747) | ATP-site probe binding, ActivX profiling, refers to: OSR1 | THP-1 cell lysate | 0.2 mM, Lys2 site | -3% |
| Cc1cccc(N(O)N=Nc2ccc(S(=O)(=O)Nc3onc(C)c3C)cc2)c1 | α-glucosidase, rat intestine | enzyme activity |  | 20 µg/mL, together with: 4-nitrophenyl α-D-glucopyranoside | 8.75 ± 0.166% |
| COc1cccc(OC[C@H]2CN(CCN3CCc4ccccc43)CCO2)c1 | DRD1 | radioligand binding |  | concentration not given, together with: [3H]SCH23390 | 37.6% |
| Cc1noc(NS(=O)(=O)c2ccc(N=NN(C)O)cc2)c1C | α-glucosidase, rat intestine | enzyme activity |  | 20 µg/mL, together with: 4-nitrophenyl α-D-glucopyranoside | 3.25 ± 0.16% |
| COc1cc2c(cc1OC)C(=O)C(CC1CCN(Cc3ccccc3)CC1)C2 (stereo not drawn) | 5-hydroxytryptamine receptor 1E (HTR1E, Homo sapiens, UniProt P28566) | radioligand binding |  | concentration not given, together with: [3H]5-HT | 0.4% |
| COc1cc(-c2cc(C(C)=O)n3ccccc23)cc(OC)c1Cn1ccnc1 | Peregrin (BRPF1, Homo sapiens, UniProt P55201) |  |  | 1 µM | 3.62% |
| CCCCC(CC)COC(=O)C(C#N)=C(c1ccccc1)c1ccccc1 (stereo not drawn) | Palmitoyl-protein thioesterase 1 | Spectrum Collection screen |  | concentration not given, together with: substrate 20 µM | 65.9% |
| Cc1nn(-c2nc3c(F)cc(F)cc3s2)c(O)c1C(c1ccccc1C(F)(F)F)c1c(C)nn(-c2nc3c(F)cc(F)cc3s2)c1O | Cyclic GMP-AMP synthase, catalytic domain; with DNA (CGAS, Homo sapiens, UniProt Q8N884) | cGAS phase separation, inhibitor |  | 0.391 µM | 27.6% |

Some of these lines once more:
| SMILES | target or system | assay | test system | setting | inhibition |
| --- | --- | --- | --- | --- | --- |
| Cc1noc(NS(=O)(=O)c2ccc(N=NN(C)O)cc2)c1C | α-glucosidase, rat intestine | enzyme activity |  | 20 µg/mL, together with: 4-nitrophenyl α-D-glucopyranoside | 3.25 ± 0.16% |
| COc1cc2c(cc1OC)C(=O)C(CC1CCN(Cc3ccccc3)CC1)C2 (stereo not drawn) | 5-hydroxytryptamine receptor 1E (HTR1E, Homo sapiens, UniProt P28566) | radioligand binding |  | concentration not given, together with: [3H]5-HT | 0.4% |
| COc1cc(-c2cc(C(C)=O)n3ccccc23)cc(OC)c1Cn1ccnc1 | Peregrin (BRPF1, Homo sapiens, UniProt P55201) |  |  | 1 µM | 3.62% |
